# Measured values of several laboratories.
# Each line is one published result; not all experiments were run side by side. “And” joins repeats or separate records; there may be more than shown. ± gives the spread as reported.
SMILES,tested on,assay,system,conditions,how to read,quantity,result
O=c1oc2c(O)c(O)cc3c(=O)oc4c(O)c(O)cc1c4c23,,,human plasma,"median, both sexes",,plasma concentration,138 nM
CNC(=O)c1cc(Oc2ccc(NC(=O)Nc3cc(C(C)(C)C)nn3-c3ccc4ncccc4c3)c(F)c2)ccn1,,refers to: worst grade 2,human,"oral, dose not given, cycles 1 and 2, High Cmax subgroup",,patients with nervous system disorder AE,28%
O=C(O)CCC(=O)O.[2H]C([2H])([2H])Oc1cc(C)c2[nH]ccc2c1CN1CC[C@@H](C2CC2)C[C@H]1c1ccc(C(=O)O)cc1,,,healthy Chinese subjects,"100 mg, single ascending dose",,TEAE decreased white cells,0%
COc1ccc2c(=O)n(C)c(-c3ccccc3)nc2c1,,,"Sprague-Dawley rat, male, large intestine","oral, 30 mg/kg, 0.25 h",reference: large intestine over plasma,tissue/plasma ratio,13.9
Cc1cc(-c2nccc3c2ccn3CC(=O)Nc2ccc(-c3cnccn3)cn2)ccn1,,,human,"5 mg once daily, multiple ascending dose",,foreign body sensation,0%
COc1cc(C[C@@H](CO)[C@H](CO)Cc2ccc(O)c(OC)c2)ccc1O,,,human plasma,mean,,plasma concentration,2810 nM
Cc1c2oc3c(C)ccc(C(=O)N[C@@H]4C(=O)N[C@H](C(C)C)C(=O)N5CCC[C@H]5C(=O)N(C)CC(=O)N(C)[C@@H](C(C)C)C(=O)O[C@@H]4C)c3nc-2c(C(=O)N[C@@H]2C(=O)N[C@H](C(C)C)C(=O)N3CCC[C@H]3C(=O)N(C)CC(=O)N(C)[C@@H](C(C)C)C(=O)O[C@@H]2C)c(N)c1=O,,LC-MS,"children with cancer, plasma","dose not given, 22 h",,median plasma concentration,1.8 µg/L
Cc1cc(Nc2cc3ncccc3c(N[C@@H]3C[C@H]4CC[C@@H](C3)N4CCC#N)n2)n[nH]1,,,healthy human subjects,"oral, 300 mg, 14 days, multiple ascending dose",,sneezing incidence,0%
Cc1nc2cccc(OCC(C)(C)C(=O)NC(C)C)c2c(N)c1C(=O)O,,,"male Swiss albino CD-1 mouse, bone marrow","oral, 500 mg/kg, 36 h",,micronucleated NCE per 2000 PCE,1.1
CNC(=O)c1ccc(-c2cnc3ncc(Cc4ccc5ncccc5c4)n3n2)cc1F,,refers to: Nausea,gastric cancer patients,"oral, 600 mg twice daily, expansion cohort, grade 3-4",,patients with adverse event,11%
CC(C)(C)c1ccc(O)c(CN(Cc2cc(C(C)(C)C)ccc2O)C2CCC(NC(N)=O)CC2)c1 (stereo not shown),,,mouse plasma,"5 ng/mL, 3 months, 4 °C, refrigerator storage",,recovery,99.88 ± 0.86%
CC[C@@](O)(c1cnc(C(F)(F)F)c(Cl)c1)c1c2ccn(C3CC3)c(=O)c2nn1C,,,"rat Sprague-Dawley male, plasma","intravenous, 1 mg/kg",,CL,1.94 ± 0.202 mL/min/kg
CCn1cc(C(=O)O)c(=O)c2ccc(C)nc21,,starch gel membrane permeability,Gram-negative envelope surrogate,"200 µM, 30 min, pH 7.4",,amount permeated,2.59 nmol
N#CCNC(=O)c1ccc(-c2ccnc(Nc3ccc(N4CCOCC4)cc3)n2)cc1,,,"healthy volunteers, plasma","dose not given, together with: rifampin multiple-dose",reference: compound alone,median half-life change,decreased
CCc1cc2ncc(CN3CCN(c4ccc(C(=O)NC)nc4)CC3)cc2[nH]c1=O,,,"female rat, blood","oral, 5 mg/kg/day, 4 weeks",reference: vehicle control,Neutrophils count ratio,0.57
Cn1cnc2c1c(=O)[nH]c(=O)n2C,,,"human, both sexes, cerebrospinal fluid",,,samples above LOQ,96.7%
N#Cc1ccc(-c2cnc3ccc(-c4ccc(C(=O)N5CCOCC5)cc4)cn23)cc1,,refers to: QRS interval,healthy volunteers,"oral, 10 mg, fasted, time-averaged",,placebo-corrected change from baseline,3.7 ms
CNC(=O)c1ccc(-c2cnc3ncc(Cc4ccc5ncccc5c4)n3n2)cc1F,,,Japanese patients,"oral, 400 mg, grade 3/4",,Malaise dose reduction/interruption,1%
CCO[C@H]1CCN(Cc2c(OC)cc(C)c3[nH]ccc23)[C@H](c2ccc(C(=O)O)cc2)C1,,,"human moderate hepatic impairment, plasma","oral, 200 mg single dose, geometric mean",,unbound half-life,19.6 h
OC[C@H]1O[C@@H](c2ccc(F)c(Cc3cc4ccccc4s3)c2)[C@H](O)[C@@H](O)[C@@H]1O,,,Japanese type 1 diabetes patients,"oral, 50 mg/day",reference: patients,hypoglycaemia adverse events,7%
N#Cc1ccc2c(c1)[C@H]1CCCN(C(=O)c3ccc4[nH]cnc4c3)[C@H]1C2,,,"human, female","10 mg, day 7",,DHEA-S level,3.4 µmol/L
CNCc1ccc(-c2[nH]c3cc(F)cc4c3c2CCNC4=O)cc1,,,patients,"oral, 840 mg twice daily, all grades",,abdominal distension incidence,0%
O=C1CCC(N2Cc3cc(CO)c(F)cc3C2=O)C(=O)N1 (stereo not shown),,,"cynomolgus monkey, male","oral, 0.3 mg/kg parent drug, 4 h",,plasma concentration,0.59 ± 0.34 ng/mL
CCc1nc(C(N)=O)c(Nc2ccc(N3CCC(N4CCN(C)CC4)CC3)c(OC)c2)nc1NC1CCOCC1,,,"Japanese patients, plasma","oral, 40 mg, cycle 1 day 28, multiple doses, mean",,AUCtau,2410 ng·h/mL
CC(=O)O[C@H]1C(=O)[C@@]2(C)[C@H]([C@H](OC(=O)c3ccccc3)[C@]3(O)C[C@H](OC(=O)[C@H](O)[C@@H](NC(=O)c4ccccc4)c4ccccc4)C(C)=C1C3(C)C)[C@]1(OC(C)=O)CO[C@@H]1C[C@@H]2O,,refers to: Pyrexia,patients with advanced solid tumours,"intravenous, dose not given, grade 3 and 4, possibly related to drug",,adverse event incidence,0%
O=C(O)c1ccccc1O,,,human plasma,"median, both sexes",,plasma concentration,2300 nM
C=CC(=O)Nc1cc(Nc2nccc(-c3cn(C)c4ccccc34)n2)c(OC)cc1N(C)CCN(C)C,,storage stability,human dried blood spots,"72 h, on ice, LLOQ level",,recovery,64.5%
COc1ccc2nc(-c3ccccn3)c(N(C)c3ccc(F)cc3)n2c1,,,"male CD-1 mouse, fasted, plasma","oral, 50 mg/kg, together with: 1-aminobenzotriazole 50 mg/kg",,elimination half-life,1.78 h and 1.64 h
COc1cc(CCC(=O)O)ccc1O[C@@H]1O[C@H](C(=O)O)[C@@H](O)[C@H](O)[C@H]1O,,,human plasma,mean,,plasma concentration,619 nM
Cc1ccc([C@@H]2O[C@H](CO)[C@@H](O)[C@H](O)[C@H]2O)cc1Cc1ccc(-c2ccc(F)cc2)s1,,,Japanese type 2 diabetes patients,"200 mg, day 15, 24 h urine collection",reference: baseline,urinary sodium excretion change,9.71 mEq
COc1ccc([C@@H](O)c2cc(-c3ncnc4cc(N5CCOCC5)ccc34)c(F)cc2Cl)nn1,,,"healthy volunteers, plasma","oral, 100 mg, tablet, fasted, median",,tlag,0 h
COc1cccc(OC)c1-c1cc(C(=O)NC2(C(=O)O)C3CC4CC(C3)CC2C4)nn1-c1ccc(C(=O)N(C)CCCN(C)CCCN(C)C(=O)CN2CCN(CC(=O)[O-])CCN(CC(=O)[O-])CCN(CC(=O)[O-])CC2)cc1C(C)C.[177Lu+3] (stereo not shown),,,"mouse, HT-29 xenograft, heart",4 h post injection,,tissue uptake,3.1 %ID/g
C[C@H]1CN(C(=O)CC#N)[C@]12CCN(c1ncnc3[nH]ccc13)C2,,,healthy human,"oral, 1.5 mg, single dose",,subjects with Arthralgia,0%
CCOc1c([C@H](C)n2nc(C)c3c(N)ncnc32)cc(Cl)c(F)c1[C@@H]1CNC(=O)C1,,refers to: QRS >100 to ≤110 ms,previously treated B-cell malignancy,"oral, 20 mg once daily, baseline below thresholds",,ECG observations,4.4%
O=C(O)/C=C/c1ccccc1,,,human plasma,"median, both sexes",,plasma concentration,5510 nM
O=C(NC[C@H]1CN(c2ccc(N3CCOCC3=O)cc2)C(=O)O1)c1ccc(Cl)s1,,"Phoenix NLME, model A","human, atrial fibrillation patients, plasma",oral,,typical population clearance,89 mL/min
CCn1cc(C(=O)O)c(=O)c2cc(F)c(N3CCNCC3)cc21,,starch gel membrane permeability,Gram-negative envelope surrogate,"200 µM, 60 min, pH 7.4",,amount permeated,3.64 nmol
COc1ccc2nc([S+]([O-])Cc3ncc(CO)c(OC)c3C)[nH]c2c1 (stereo not shown),,,"human, dried plasma spots",2 h,reference: baseline,R/S enantiomer ratio,9.89
CC(C)(C(=O)N1CCOc2c(C#N)cncc2C1)C(F)F,,refers to: Dyspepsia,human,"oral, 10 mg once daily, 14 days, multiple ascending dose",,subjects with adverse event,0%
O=c1c(O)c(-c2ccc(O)c(OS(=O)(=O)O)c2)oc2cc(O)cc(O)c12,,,human plasma,mean,,plasma concentration,970 nM
CN1CCC[C@H](CN2c3ccccc3Sc3ccccc32)C1.Cl,,,"Wistar rat female, plasma","oral, 16 mg/kg",,Tmax,6 h
CN(C)C(=O)CCc1nc(-c2ccccc2)c(-c2ccccc2)o1,COS-7,,,"100 µM, 24 h, 0.1% DMSO, unit not given",reference: control,apoptosis,0.93 ± 0.14
Cc1nc2ccc(OCc3ccc(C(F)(F)F)cc3)cc2[nH]1,,,"male Balb/c mice, liver","oral, 10 mg/kg, 4 h",reference: tissue over plasma,tissue/plasma ratio,11.9 ± 1.6
CC(C)c1nc(CN(C)C(=O)N[C@@H](CCN2CCOCC2)C(=O)N[C@H](CC[C@H](Cc2ccccc2)NC(=O)OCc2cncs2)Cc2ccccc2)cs1,,refers to: Photophobia,human,"oral, 150 mg",,drug-related TEAE incidence,0%
C=CC(=O)N1CCC(c2ccc(C(N)=O)c(-c3ccc(Oc4ccccc4)cc3)n2)CC1,,,relapsed/refractory mantle cell lymphoma patients,"oral, 100 mg twice daily, part, CTCAE v4.03",,TEAE rate,50%
O=C(COc1ccc(Cl)cc1)NC12CC(c3nnc([C@H]4C[C@@H](OC(F)(F)F)C4)o3)(C1)C2,,refers to: Myalgia,human,"oral, dose not given, 14 days",,adverse event incidence,8.8%
COc1ccc([C@@H](O)c2cc(-c3ncnc4cc(N5CCOCC5)ccc34)c(F)cc2Cl)nn1,,,locally advanced rectal cancer patients,"50 mg, together with: capecitabine and radiotherapy",,drug-related nausea incidence,0%
CCN1/C(=C/C(C)=O)Sc2ccc(F)cc21,,,cynomolgus monkey,"oral, 100 mg/kg, 6 h post-dose",reference: pre-dose,heart rate change,95.6 ± 22.3%
O=C(c1cccnc1-c1ccncc1)N1CCC(O)(Cc2ccccc2)CC1,,,"healthy Japanese adults, plasma","oral, 200 mg twice daily, day 14",,AUClast,860 ng·h/mL
O=c1ccccc(C2CCCO2)c1O (stereo not shown),,,"C57BL/6 mouse male, turpentine inflammation anemia, serum","200 mg/kg/day, 3 h after last dose",,serum concentration,20000 nM
Cc1cc(C)c(CNC(=O)c2cc(Cl)c3c(c2C)O[C@@](C)([C@H]2CC[C@H](N(C)C)CC2)O3)c(=O)[nH]1,,,human relapsed/refractory NHL,"oral, 200 mg once daily, onset day 1 to 14",,GGT increased grade ≥3,0%
CC(=O)O[C@H]1C[C@@]2(C)[C@@H](C[C@@H](O)[C@H]3[C@@]4(C)CC[C@@H](O)[C@@H](C)[C@@H]4CC[C@@]32C)/C1=C(\CCC=C(C)C)C(=O)O,,starch gel membrane permeability,Gram-negative envelope surrogate,"200 µM, 45 min, pH 7.4",,amount permeated,0.28 nmol
CNC(=O)c1ccc(-c2cnc3ncc(Cc4ccc5ncccc5c4)n3n2)cc1F,,,"human, plasma","oral, 200 mg, geometric mean",,AUC(0-t),5210 ng·h/mL
CCc1cc(C(=O)NC)c2nccc(N3CCc4c(cc(Cn5ccnc5)cc4-c4cn(C)nc4C(F)(F)F)C3=O)c2c1,,,Sprague Dawley rat,"oral, 50 mg/kg once daily, 7 days",,lung weight,1.32 ± 0.069 g
C[C@@H](N)C1CCN(S(=O)(=O)c2cccc3cnccc23)CC1,,,healthy volunteers,"150 mg, fasted",,"participants, with TEAEs, treatment-related",33.3%
CO[C@@H]1[C@@H](OC(N)=O)[C@@H](O)[C@H](Oc2ccc3c(O)c(NC(=O)c4ccc(O)c(CC=C(C)C)c4)c(=O)oc3c2C)OC1(C)C,,starch gel membrane permeability,Gram-negative envelope surrogate,"200 µM, 45 min, pH 7.4",,amount permeated,1.5 nmol
COc1ccc(C2CC(=O)c3c(O)cc(OS(=O)(=O)O)cc3O2)cc1O (stereo not shown),,,human plasma,median,,plasma concentration,6330 nM
CC1CCNc2c(C(=O)NC/C=C/S(C)(=O)=O)cccc21 (stereo not shown),,,"uninfected mouse, serum",300 mg/kg,,serum TBILI,0.43 mg/dL and 0.38 mg/dL

# For quick reference, copied from above:
SMILES,tested on,assay,system,conditions,how to read,quantity,result
CNC(=O)c1cc(Oc2ccc(NC(=O)Nc3cc(C(C)(C)C)nn3-c3ccc4ncccc4c3)c(F)c2)ccn1,,refers to: worst grade 2,human,"oral, dose not given, cycles 1 and 2, High Cmax subgroup",,patients with nervous system disorder AE,28%
O=C(O)CCC(=O)O.[2H]C([2H])([2H])Oc1cc(C)c2[nH]ccc2c1CN1CC[C@@H](C2CC2)C[C@H]1c1ccc(C(=O)O)cc1,,,healthy Chinese subjects,"100 mg, single ascending dose",,TEAE decreased white cells,0%
COc1ccc2c(=O)n(C)c(-c3ccccc3)nc2c1,,,"Sprague-Dawley rat, male, large intestine","oral, 30 mg/kg, 0.25 h",reference: large intestine over plasma,tissue/plasma ratio,13.9
Cc1cc(-c2nccc3c2ccn3CC(=O)Nc2ccc(-c3cnccn3)cn2)ccn1,,,human,"5 mg once daily, multiple ascending dose",,foreign body sensation,0%
COc1cc(C[C@@H](CO)[C@H](CO)Cc2ccc(O)c(OC)c2)ccc1O,,,human plasma,mean,,plasma concentration,2810 nM
Cc1c2oc3c(C)ccc(C(=O)N[C@@H]4C(=O)N[C@H](C(C)C)C(=O)N5CCC[C@H]5C(=O)N(C)CC(=O)N(C)[C@@H](C(C)C)C(=O)O[C@@H]4C)c3nc-2c(C(=O)N[C@@H]2C(=O)N[C@H](C(C)C)C(=O)N3CCC[C@H]3C(=O)N(C)CC(=O)N(C)[C@@H](C(C)C)C(=O)O[C@@H]2C)c(N)c1=O,,LC-MS,"children with cancer, plasma","dose not given, 22 h",,median plasma concentration,1.8 µg/L
